Experimental data collected from several papers.
Lines come from different studies, so protocols differ.

Compound = CC(=O)N1c2ccc(-c3ccc(CNC(=O)c4cn5cc(-c6cnc(N)nc6)nc(N6CCOCC6)c5n4)cc3)cc2CC[C@@H]1C; host = female C57BL/6 mouse; medium = plasma; route = intraperitoneal; dose = 45 mg/kg; notes = single dose; AUC(0-t) = 165 µM·h
Compound = CCC(=O)N1CCC=C(c2cc3c(Nc4cc5ncsc5cc4F)ncnc3s2)C1; host = mouse; medium = plasma; route = oral; dose = 10 mg/kg; AUC(0-t) = 14900 ng·h/mL
Compound = COc1ccc(C(=O)c2c(C(=O)NCCCN(C)C)oc3ccc(Cl)cc3c2=O)cc1OC; host = male C57BL/6 mouse; medium = liver; route = intravenous; dose = 1 mg/kg; AUC(0-t) = 52100 ng·h/mL
Compound = CCC(=O)NC1CC=C(c2cc3c(Nc4cc5ncsc5cc4F)ncnc3s2)CC1 (racemic); host = mouse; medium = plasma; route = oral; dose = 10 mg/kg; AUC(0-t) = 27300 ng·h/mL
Compound = CC[C@H](C)[C@@H]1NC(=O)[C@@](C)(NC(=O)[C@H](CCCNC(=N)N)NC(=O)[C@H](CC(C)C)NC(=O)[C@]2(C)CCCC=CCCC[C@](C)(NC(C)=O)C(=O)N[C@@H](CC(C)C)C(=O)N[C@@H](CCC(N)=O)C(=O)N2)CCCC=CCCC[C@@](C)(C(=O)N[C@@H](CC(C)C)C(=O)N[C@@H](Cc2ccc3ccccc3c2)C(=O)NCCC(=O)NCCC(N)=O)NC(=O)[C@H](CCCNC(=N)N)NC(=O)[C@H](CCC(N)=O)NC1=O; host = male BALB/c mouse; medium = plasma; route = intraperitoneal; dose = 30 mg/kg; AUC(0-t) = 987000 ng·h/mL
Compound = Cc1ncsc1-c1ccc(CNC(=O)[C@@H]2C[C@@H](O)CN2C(=O)[C@@H](NC(=O)COCC(C)(COCCOCCOCCNC(=O)C[C@@H]2N=C(c3ccc(Cl)cc3)c3c(sc(C)c3C)-n3c(C)nnc32)COCCOCCOCCNC(=O)C[C@@H]2N=C(c3ccc(Cl)cc3)c3c(sc(C)c3C)-n3c(C)nnc32)C(C)(C)C)cc1; host = male C57BL/6 mouse; medium = plasma; route = subcutaneous; dose = 5 mg/kg; notes = single dose; AUC(0-t) = 23200 ng·h/mL
Compound = OCCn1nc(-c2ccccc2)c2c(Cl)c(-c3ccccc3)nnc21; host = mouse; medium = plasma; route = intraperitoneal; dose = 10 mg/kg; AUC(0-t) = 0.57 µM·h
Compound = COC(=O)C1=CNC=C(C(=O)OC)C1c1ccc(F)c(C(F)(F)F)c1; host = male C57BL/6 mouse; medium = plasma; route = intravenous; dose = 2 mg/kg; AUC(0-t) = 1340 ng·h/mL
Compound = O=C(OC(C(F)(F)F)C(F)(F)F)N1CCC(CNS(=O)(=O)c2ccc(Cl)cc2)CC1; host = male SCID mouse; medium = brain; route = oral; dose = 10 mg/kg; notes = single dose; AUC(0-t) = 11200 ng·h/mL
Compound = CC(C)NC(=O)NC1CC=C(c2cc3c(Nc4cc5ncsc5cc4F)ncnc3s2)CC1 (racemic); host = mouse; medium = plasma; route = oral; dose = 10 mg/kg; AUC(0-t) = 11600 ng·h/mL
Compound = Nc1nnc(-c2ccccc2O)cc1N1CC2CCC(C1)N2c1ccnc(C#CCCN2CCCCCC2)c1; host = mouse; medium = plasma; route = oral; dose = 10 mg/kg; AUC(0-t) = 0.0033 µM·h
Compound = COc1ccccc1NC(=O)OC1C(C)C(OC)C=COC2(C)Oc3c(C)c(O)c4c(c3C2=O)C2=NC3(CCN(CC(C)C)CC3)NC2=C(NC(=O)C(C)=CC=CC(C)C(O)C(C)C(O)C1C)C4=O (stereo not shown); host = female CD-1 mouse; medium = plasma; route = oral; dose = 10 mg/kg; AUC(0-t) = 10200 ng·h/mL
Compound = CCn1cc(-c2cc(Cn3ccnc3)cc3c2CCN([C@H](c2cc(OC)ccn2)C2CC2)C3=O)c(C(F)(F)F)n1; host = male CD-1 mouse; medium = plasma; route = oral; dose = 50 mg/kg; AUC(0-t) = 20100 ng·h/mL
Compound = C[C@@H](Nc1nc2c(cnn2C(C)(C)C)c(=O)n1Cc1cccc(F)c1)c1ccc(Cl)cc1; host = C57BL/6 mouse; medium = plasma; route = oral; dose = 5 mg/kg; AUC(0-t) = 1660 ng·h/mL
Compound = O=C(NCCCCc1ccccc1)n1c(=O)oc2cc(-c3ccc(F)cc3)ccc21; host = CD-1 mouse; medium = plasma; route = intraperitoneal; dose = 10 mg/kg; AUC(0-t) = 5170 ng·h/mL
Compound = COc1cnc2cccc(N3CCc4c(cc(Cn5ccnc5)cc4-c4cn(C)nc4C(F)(F)F)C3=O)c2c1; host = male CD-1 mouse; medium = plasma; route = intraperitoneal; dose = 50 mg/kg; AUC(0-t) = 77500 ng·h/mL
Compound = Cc1cc(NCC(=O)C(C)C)c2nc(N3CCOC[C@H]3C)cc(=O)n2c1; host = C57BL/6 mouse; medium = plasma; route = intraperitoneal; dose = 10 mg/kg; notes = single dose; AUC(0-t) = 3030 ng·h/mL
Compound = N#CCCC1CCN(C(=S)c2ccc(-c3cc(Cl)ccc3Cl)o2)CC1; host = male BALB/c mouse; medium = plasma; route = intravenous; dose = 5 mg/kg; AUC(0-t) = 1240 ng·h/mL
Compound = Cn1c2cc([S+](C)[O-])sc2c2cnn(Cc3cccc(N)c3)c(=O)c21 (stereo not shown); host = male BALB/c mouse; medium = plasma; route = intraperitoneal; dose = 50 mg/kg; notes = single dose; AUC(0-t) = 131000 ng·h/mL
Compound = COc1ccc2nc(NC(c3ccc(O)cc3)P(=O)(OC)OC)sc2c1 (stereo not shown); host = mouse; medium = plasma; route = intravenous; dose = 10 mg/kg; AUC(0-t) = 2860 ng·h/mL
Compound = O=C(C1CC1)N1CCC=C(c2cc3c(Nc4cc5ncsc5cc4F)ncnc3s2)C1; host = mouse; medium = plasma; route = intravenous; dose = 10 mg/kg; AUC(0-t) = 16200 ng·h/mL
Compound = Cc1cc(NCCOC(C)C)c2nc(N3CCOC[C@H]3C)cc(=O)n2c1; host = C57BL/6 mouse; medium = plasma; route = intraperitoneal; dose = 10 mg/kg; notes = single dose; AUC(0-t) = 16500 ng·h/mL
Compound = COC1C=COC2(C)Oc3c(C)c(O)c4c(c3C2=O)C2=NC3(CCN(CC(C)C)CC3)NC2=C(NC(=O)C(C)=CC=CC(C)C(O)C(C)C(O)C(C)C(OC(=O)Nc2cnccn2)C1C)C4=O (stereo not shown); host = female CD-1 mouse; medium = plasma; route = oral; dose = 10 mg/kg; AUC(0-t) = 55100 ng·h/mL
Compound = O=C(O)c1ccc(/C=C2\SC(=S)N(Cc3cccc(C(F)(F)F)c3)C2=O)cc1; host = C57BL/6 mouse; medium = blood; route = oral; dose = 10 mg/kg; AUC(0-t) = 8180 ng·h/mL
Compound = COC1C=COC2(C)Oc3c(C)c(O)c4c(c3C2=O)C2=NC3(CCN(CC(C)C)CC3)NC2=C(NC(=O)C(C)=CC=CC(C)C(O)C(C)C(O)C(C)C(OC(=O)c2cccnc2)C1C)C4=O (stereo not shown); host = female CD-1 mouse; medium = plasma; route = oral; dose = 10 mg/kg; AUC(0-t) = 43900 ng·h/mL
Compound = COc1ccccc1/C=C/CNCC(O)COc1ccc(Nc2ccccc2)cc1 (racemic); host = mouse; medium = plasma; route = oral; dose = 10 mg/kg; AUC(0-t) = 50.4 ng·h/mL
Compound = CC(=O)N1CCC=C(c2cc3c(Nc4cc5ncsc5cc4F)ncnc3s2)C1; host = mouse; medium = plasma; route = intravenous; dose = 10 mg/kg; AUC(0-t) = 64800 ng·h/mL
Compound = Cc1cc(NC(=O)[C@H](O)c2cc(F)cc(F)c2)ccc1-c1cnc(N)c(C(=O)NC(C)C)c1; host = female nude mouse; medium = plasma; route = oral; dose = 30 mg/kg; notes = single dose; AUC(0-t) = 15600 ng·h/mL

Repeated from above:
Compound = CCn1cc(-c2cc(Cn3ccnc3)cc3c2CCN([C@H](c2cc(OC)ccn2)C2CC2)C3=O)c(C(F)(F)F)n1; host = male CD-1 mouse; medium = plasma; route = oral; dose = 50 mg/kg; AUC(0-t) = 20100 ng·h/mL
Compound = C[C@@H](Nc1nc2c(cnn2C(C)(C)C)c(=O)n1Cc1cccc(F)c1)c1ccc(Cl)cc1; host = C57BL/6 mouse; medium = plasma; route = oral; dose = 5 mg/kg; AUC(0-t) = 1660 ng·h/mL
Compound = O=C(NCCCCc1ccccc1)n1c(=O)oc2cc(-c3ccc(F)cc3)ccc21; host = CD-1 mouse; medium = plasma; route = intraperitoneal; dose = 10 mg/kg; AUC(0-t) = 5170 ng·h/mL
